Published values gathered from unrelated publications.
Several values in a cell are separate wells, animals, samples, runs or records. Converted amounts (≈) assume the structure as drawn.
Organism: Staphylococcus aureus

The MBC of `CC[C@H](C)[C@@H]1NC(=O)[C@H](CO)NC(=O)C(C)(CCCCN)NC(=O)[C@@H]2CSSC[C@@H](C(=O)N[C@@H](Cc3ccc(O)cc3)C(N)=O)NC(=O)[C@H](CCCCN)NC(=O)[C@@H]3CSSC[C@H](NC(=O)[C@H](CCCNC(=N)N)NC(=O)C(C)(CC(C)C)NC(=O)[C@H](CC(=O)O)NC(=O)[C@H](CC(=O)O)NC(=O)[C@H](CCC(=O)O)NC(=O)[C@H](CC(N)=O)NC(=O)[C@H](Cc4c[nH]c5ccccc45)NC(=O)C(C)(CC)NC(=O)CNC(=O)[C@H](CC(N)=O)NC(=O)[C@@H](NC(=O)CNC(=O)[C@H](Cc4ccccc4)NC(=O)CN)CSSC[C@H](NC(=O)[C@H](Cc4ccc(O)cc4)NC(=O)CNC(=O)CNC(=O)[C@H](CCCCN)NC(=O)[C@H](Cc4ccc(O)cc4)NC(=O)[C@H]4CCCN4C(=O)[C@@H]4CCCN4C1=O)C(=O)N[C@@H](C)C(=O)N[C@@H](CCCCN)C(=O)N1CCC[C@@H]1C(=O)NCC(=O)N[C@@H](Cc1ccccc1)C(=O)N[C@@H](C(C)C)C(=O)N3)C(=O)N[C@@H](Cc1c[nH]cn1)C(=O)NC(C)(C)C(=O)N[C@@H](Cc1c[nH]cn1)C(=O)N2` (stereo partly shown) is reported as 4 µM (≈ 17.8 µg/mL) (USA300 MRSA; 24 h).
`CC[C@H](C)[C@@H]1NC(=O)[C@@H](CCCNC(=N)N)NC(=O)[C@@H](NC(=O)[C@@H](CC(C)C)NC(=O)[C@H](C)NC(=O)[C@H](C)NC(=O)[C@@H]2CCCN2C(=O)[C@@H](CC(C)C)NC(=O)[C@@H](NC(=O)[C@@H](CCCNC(=N)N)NC(=O)[C@@H](CC(C)C)NC(=O)[C@@H](CC(C)C)NC(=O)[C@@H](NC(=O)[C@@H](CCCNC(=N)N)NC(=O)[C@@H](CC(C)C)NC(=O)[C@@H](NC(=O)[C@@H](NC(=O)CNC(=O)[C@@H](CC(C)C)NC(=O)[C@@H](N)Cc2ccccc2)[C@@H](C)O)C(C)C)C(C)C)C(C)C)CSSC[C@@H](C(=O)O)NC(=O)[C@@H](CCCNC(=N)N)NC(=O)[C@@H](CCCNC(=N)N)NC(=O)[C@H](Cc2ccccc2)NC1=O` has a survival rate of 30% (MRSA NCTC 12493, Galleria mellonella larvae; 32 mg/kg, planktonic infection).
`Oc1c(Br)cc(Br)c2nc3cc(F)c(F)cc3nc12` has an MBEC of 25 µM (biofilm eradication, Calgary biofilm device; MRSA BAA-1707, BAA-44).
`N=C(N)NCCC[C@H](NC(=O)[C@H](Cc1c[nH]c2ccccc12)NC(=O)[C@H](CCCNC(=N)N)NC(=O)[C@H](CCCNC(=N)N)NC(=O)[C@@H]1CCCN1C(=O)[C@H](CCCCN)NC(=O)[C@@H](N)CCCNC(=N)N)C(=O)N[C@@H](Cc1c[nH]c2ccccc12)C(=O)N[C@@H](Cc1c[nH]c2ccccc12)C(=O)N1CCC[C@H]1C(=O)N[C@@H](CCCCN)C(=O)N[C@@H](CCCNC(=N)N)C(=O)N1CCC[C@H]1C(=O)O`: “log bacterial load” 4.93 log(CFU/g) and 5.38 log(CFU/g) and 5.77 log(CFU/g) and 5.78 log(CFU/g) and 5.79 log(CFU/g) and 4.75 log(CFU/g) (09057, female BALB/c mice, sepsis, spleen; intraperitoneal, 20 mg/kg).
The MBC of `CC[C@H](C)[C@@H]1NC(=O)[C@H](CO)NC(=O)[C@H](CCCCN)NC(=O)[C@@H]2CSSC[C@@H](C(=O)N[C@@H](Cc3ccc(O)cc3)C(N)=O)NC(=O)[C@H](CCCCN)NC(=O)[C@@H]3CSSC[C@H](NC(=O)[C@H](CCCNC(=N)N)NC(=O)[C@H](CC(C)C)NC(=O)[C@H](CC(=O)O)NC(=O)[C@H](CC(=O)O)NC(=O)[C@H](CCC(=O)O)NC(=O)[C@H](CC(N)=O)NC(=O)[C@H](Cc4c[nH]c5ccccc45)NC(=O)C(C)(CC)NC(=O)CNC(=O)[C@H](CC(N)=O)NC(=O)[C@@H](NC(=O)CNC(=O)[C@H](Cc4ccccc4)NC(=O)CN)CSSC[C@H](NC(=O)[C@H](Cc4ccc(O)cc4)NC(=O)CNC(=O)CNC(=O)[C@H](CCCCN)NC(=O)[C@H](Cc4ccc(O)cc4)NC(=O)[C@H]4CCCN4C(=O)[C@@H]4CCCN4C1=O)C(=O)N[C@@H](C)C(=O)N[C@@H](CCCCN)C(=O)N1CCC[C@@H]1C(=O)NCC(=O)N[C@@H](Cc1ccccc1)C(=O)N[C@@H](C(C)C)C(=O)N3)C(=O)N[C@@H](Cc1c[nH]cn1)C(=O)N[C@@H](CC(N)=O)C(=O)N[C@@H](Cc1c[nH]cn1)C(=O)N2` (stereo partly shown) is reported as 4 µM (≈ 17.8 µg/mL) (USA300 MRSA; 24 h).
For `CC[C@H](C)[C@H](NC(=O)[C@H](CC(C)C)NC(=O)[C@H](CC(=O)O)NC(=O)[C@H](CCCNC(=N)N)NC(=O)[C@H](Cc1c[nH]c2ccccc12)NC(=O)[C@@H](N)CC(C)C)C(=O)N[C@@H](CS)C(=O)N[C@@H](CC(C)C)C(=O)N[C@@H](CS)C(=O)N[C@@H](CCCNC(=N)N)C(=O)N[C@@H](CC(N)=O)C(=O)N[C@@H](CCCNC(=N)N)C(=O)N[C@@H](CCCNC(=N)N)C(=O)N[C@@H](CS)C(=O)N[C@@H](CC(N)=O)C(=O)N[C@@H](CCCNC(=N)N)C(=O)NCC(=O)N[C@@H](CCC(N)=O)C(=O)N[C@@H](CC(C)C)C(=O)N[C@@H](Cc1ccccc1)C(=O)N1CCC[C@H]1C(=O)NCC(=O)N[C@@H](Cc1c[nH]c2ccccc12)C(=O)N[C@@H](CS)C(=O)N1CCC[C@H]1C(=O)NCC(=O)N[C@@H](Cc1c[nH]c2ccccc12)C(=O)N[C@@H](Cc1c[nH]c2ccccc12)C(=O)N[C@@H](CC(C)C)C(=O)N[C@@H](CCCNC(=N)N)C(=O)N[C@@H](CS)C(=O)N[C@@H](CS)C(=O)N[C@@H](CCCNC(=N)N)C(=O)N[C@@H](CCCNC(=N)N)C(N)=O`, the bactericidal rate was 100% (50 µg/mL, before trypsin treatment).
`CCCCCCCCCC(=O)OCCSCCC(=O)N[C@H](CCN)C(=O)N[C@@H](CCN)C(=O)N[C@@H](CCN)C(=O)N[C@@H](CC(C)C)C(=O)N[C@H](Cc1ccccc1)C(=O)N[C@@H](CCN)C(=O)N[C@@H](CCN)C(=O)N[C@@H](CC(C)C)C(N)=O` gave an MBC of 8 µM (≈ 9.42 µg/mL) (ATCC 6538; 24 h, 37 °C).
The IC50 of `CCCNC(=O)[C@H](Cc1ccc(O)cc1)NC(=O)[C@H](Cc1ccc(O)cc1)NC(=O)[C@H](NC(=O)[C@H](NC(=O)[C@H](CC(N)=O)NC(=O)[C@@H](Cc1ccc(O)cc1)NC(=O)[C@@H](CC(C)C)NC)c1ccccc1)c1ccc(O)cc1` is reported as over 40 µM (bacterial growth).
For `CC(C)[C@H]1NC(=O)[C@H](Cc2ccccc2)NC(=O)[C@@H](C(C)C)NC(=O)[C@@H](C)NC(=O)[C@H](CO)NC(=O)[C@@H](Cc2c(-c3ccc(-c4ccc5ccccc5c4)cc3)[nH]c3ccccc23)NC(=O)[C@@H](CO)NC1=O`, the MIC90 was over 50 µM (broth dilution).
`CC(C)C[C@H](NC(=O)[C@H](CC(C)C)NC(=O)[C@H](CCCCN)NC(=O)[C@H](Cc1ccccc1)NC(=O)[C@@H](NC(=O)[C@H](CCCNC(=N)N)NC(=O)[C@@H](N)CCCCN)C(C)C)C(=O)N[C@@H](CCCCN)C(=O)N[C@@H](CCCNC(=N)N)C(=O)N[C@@H](Cc1ccc(O)cc1)C(=O)N[C@@H](Cc1c[nH]c2ccccc12)C(=O)N[C@@H](CCCNC(=N)N)C(=O)N[C@@H](CCC(N)=O)C(=O)N[C@@H](CC(C)C)C(=O)N[C@@H](CCCCN)C(=O)N[C@@H](CCCCN)C(=O)N1CCC[C@H]1C(=O)N[C@H](C(=O)N[C@@H](CCCNC(=N)N)C(=O)NCCOCCOCC(=O)O)C(C)C` — result for “time to complete killing”: at most 60 min (RPMI-1640 10% FBS; 2× MIC, 37 °C).
`CC(C)[C@H]1NC(=O)[C@H](Cc2ccccc2)NC(=O)[C@@H](C(C)C)NC(=O)[C@@H](C)NC(=O)[C@H](CO)NC(=O)[C@@H](Cc2c(-c3ccc(-c4ccccc4)cc3)[nH]c3ccccc23)NC(=O)[C@@H](CO)NC1=O` gave an MIC90 of over 50 µM (broth dilution).
`OB(O)c1ccc(C(F)(F)F)s1`: “growth relative to untreated” 98.8% and 102% and 86.9% and 86.3% and 86.6% and 95.2% (USA300 wild type; 1 µM; baseline: untreated).
For `Cc1ccc2nc(C)c(C(=O)C(=O)N(C)C)n2c1`, the inhibition zone was 0 mm (microbial growth; SG511; 2 mM, 20 h).

Excerpt of the above:
`CC(C)C[C@H](NC(=O)[C@H](CC(C)C)NC(=O)[C@H](CCCCN)NC(=O)[C@H](Cc1ccccc1)NC(=O)[C@@H](NC(=O)[C@H](CCCNC(=N)N)NC(=O)[C@@H](N)CCCCN)C(C)C)C(=O)N[C@@H](CCCCN)C(=O)N[C@@H](CCCNC(=N)N)C(=O)N[C@@H](Cc1ccc(O)cc1)C(=O)N[C@@H](Cc1c[nH]c2ccccc12)C(=O)N[C@@H](CCCNC(=N)N)C(=O)N[C@@H](CCC(N)=O)C(=O)N[C@@H](CC(C)C)C(=O)N[C@@H](CCCCN)C(=O)N[C@@H](CCCCN)C(=O)N1CCC[C@H]1C(=O)N[C@H](C(=O)N[C@@H](CCCNC(=N)N)C(=O)NCCOCCOCC(=O)O)C(C)C` — result for “time to complete killing”: at most 60 min (RPMI-1640 10% FBS; 2× MIC, 37 °C).
